# Measurements collected from several papers.
# Lines come from different studies, so protocols differ. pEC50, pIC50: −log10 of the molar value.
# Target: Tyrosine-protein kinase ABL1 (ABL1, Homo sapiens, UniProt P00519)
# Chain of UniProt P00519 (whole entry, looked up): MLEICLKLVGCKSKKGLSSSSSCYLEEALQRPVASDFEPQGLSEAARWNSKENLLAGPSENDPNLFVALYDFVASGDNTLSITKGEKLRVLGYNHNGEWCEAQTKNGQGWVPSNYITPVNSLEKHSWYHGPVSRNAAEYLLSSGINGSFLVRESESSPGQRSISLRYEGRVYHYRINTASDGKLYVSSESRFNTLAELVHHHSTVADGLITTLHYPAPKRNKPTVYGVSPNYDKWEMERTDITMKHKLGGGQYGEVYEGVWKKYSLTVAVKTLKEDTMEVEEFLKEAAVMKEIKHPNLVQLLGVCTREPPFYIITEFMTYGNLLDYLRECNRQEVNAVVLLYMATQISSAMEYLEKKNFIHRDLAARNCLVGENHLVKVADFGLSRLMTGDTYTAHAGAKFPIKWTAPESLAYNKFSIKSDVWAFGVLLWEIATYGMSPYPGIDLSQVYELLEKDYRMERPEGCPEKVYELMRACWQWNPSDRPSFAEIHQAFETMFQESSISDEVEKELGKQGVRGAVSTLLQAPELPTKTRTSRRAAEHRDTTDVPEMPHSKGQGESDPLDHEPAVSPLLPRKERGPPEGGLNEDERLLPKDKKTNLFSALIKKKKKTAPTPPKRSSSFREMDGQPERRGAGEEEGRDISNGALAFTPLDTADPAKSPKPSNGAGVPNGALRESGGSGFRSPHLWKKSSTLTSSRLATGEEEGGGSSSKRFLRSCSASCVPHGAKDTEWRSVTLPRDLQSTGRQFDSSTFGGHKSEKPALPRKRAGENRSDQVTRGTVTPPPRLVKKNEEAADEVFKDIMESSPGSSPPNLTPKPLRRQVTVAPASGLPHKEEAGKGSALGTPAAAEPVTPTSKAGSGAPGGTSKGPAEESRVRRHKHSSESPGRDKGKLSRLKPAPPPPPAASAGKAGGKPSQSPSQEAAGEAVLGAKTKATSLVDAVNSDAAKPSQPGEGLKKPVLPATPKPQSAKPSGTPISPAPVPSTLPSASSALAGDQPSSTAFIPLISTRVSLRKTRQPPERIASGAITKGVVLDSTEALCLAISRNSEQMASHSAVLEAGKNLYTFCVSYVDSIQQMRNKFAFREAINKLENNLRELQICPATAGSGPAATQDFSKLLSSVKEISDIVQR
SMILES,test,quantity,value
Cc1nc(Nc2ncc(C(=O)Nc3c(C)cccc3Cl)s2)cc(N2CCN(CCOC(=O)[C@@H](N)CS)CC2)n1,,pIC50,7.17
COCCOc1ccc2cc1S(=O)(=O)NCCCNc1nc(ncc1-c1ccc(F)c(OC)c1)N2,"target engagement in cells, BRET",pEC50,4.49
Cc1ccc2oc(-c3c4c(N)n[nH]c(=O)c4nn3-c3ccc(NC(=O)/C=C/CN(C)C)cc3)c(C)c2c1,"enzyme activity, inhibitor, ELISA",pIC50,< 6.00
CC(=O)N[C@@H](Cc1c[nH]c2ccccc12)C(=O)N[C@@H](Cc1c[nH]c2ccccc12)C(=O)N[C@@H](Cc1c[nH]c2ccccc12)C(=O)N[C@@H](Cc1c[nH]c2ccccc12)C(=O)N[C@@H](Cc1c[nH]c2ccccc12)C(=O)N[C@@H](Cc1c[nH]c2ccccc12)C(=O)N[C@@H](Cc1c[nH]c2ccccc12)C(=O)NCCCC[C@@H]1NC(=O)[C@H](CCCNC(=N)N)NC(=O)[C@H](CCCNC(=N)N)NC(=O)[C@H](CCCNC(=N)N)NC(=O)[C@H](CCCNC(=N)N)NC(=O)[C@H](CCCNC(=N)N)NC1=O,"enzyme activity, inhibitor, radiometric",pIC50,5.83
CCCc1ccc(NC(=O)c2ccccc2NCc2ccc(=O)[nH]c2)cc1C(F)(F)F,"enzyme activity, inhibitor",pIC50,3.48
Cc1nc(Nc2ncc(C(=O)Nc3c(C)cccc3Cl)s2)cc(N2CCN(CCOC(=O)[C@@H](N)CCC(=O)O)CC2)n1,,pIC50,8.36
N=C(N)NCCC[C@@H]1NC(=O)[C@H](Cc2c[nH]c3ccccc23)NC(=O)[C@H](CCCNC(=N)N)NC(=O)[C@H](Cc2c[nH]c3ccccc23)NC(=O)[C@H](CCCNC(=N)N)NC(=O)[C@H](Cc2c[nH]c3ccccc23)NC(=O)[C@H](CCCNC(=N)N)NC(=O)[C@H](Cc2c[nH]c3ccccc23)NC(=O)[C@H](CCCNC(=N)N)NC(=O)[C@H](Cc2c[nH]c3ccccc23)NC(=O)[C@H](CCCNC(=N)N)NC(=O)[C@H](Cc2c[nH]c3ccccc23)NC(=O)[C@H](CCCNC(=N)N)NC(=O)[C@H](Cc2c[nH]c3ccccc23)NC(=O)[C@H](CCCNC(=N)N)NC(=O)[C@H](Cc2c[nH]c3ccccc23)NC(=O)[C@H](CCCNC(=N)N)NC(=O)[C@H](Cc2c[nH]c3ccccc23)NC1=O,"enzyme activity, inhibitor, radiometric",pIC50,6.46
COc1cc(-c2cnc3nc2NCCCNS(=O)(=O)c2cccc(c2)N3)ccc1F,"target engagement in cells, BRET",pEC50,4.57
CC(=O)N[C@@H](Cc1c[nH]c2ccccc12)C(=O)N[C@@H](Cc1c[nH]c2ccccc12)C(=O)N[C@@H](Cc1c[nH]c2ccccc12)C(=O)N[C@@H](Cc1c[nH]c2ccccc12)C(=O)N[C@@H](Cc1c[nH]c2ccccc12)C(=O)N[C@@H](Cc1c[nH]c2ccccc12)C(=O)NCCCC[C@@H]1NC(=O)[C@H](CCCNC(=N)N)NC(=O)[C@H](CCCNC(=N)N)NC(=O)[C@H](CCCNC(=N)N)NC(=O)[C@H](CCCNC(=N)N)NC(=O)[C@H](CCCNC(=N)N)NC(=O)[C@H](CCCNC(=N)N)NC1=O,"enzyme activity, inhibitor, radiometric",pIC50,5.99
CCCCCCCC(=O)OCCN1CCN(c2cc(Nc3ncc(C(=O)Nc4c(C)cccc4Cl)s3)nc(C)n2)CC1,,pIC50,7.29
CC(C)c1ccc(C(=O)Nc2ccc(CN3CCN(C)CC3)c(C(F)(F)F)c2)cc1C#Cc1cnc2cccnn12,"enzyme activity, inhibitor, ADP detection",pIC50,7.51

# For quick reference, copied from above:
SMILES,test,quantity,value
CC(=O)N[C@@H](Cc1c[nH]c2ccccc12)C(=O)N[C@@H](Cc1c[nH]c2ccccc12)C(=O)N[C@@H](Cc1c[nH]c2ccccc12)C(=O)N[C@@H](Cc1c[nH]c2ccccc12)C(=O)N[C@@H](Cc1c[nH]c2ccccc12)C(=O)N[C@@H](Cc1c[nH]c2ccccc12)C(=O)NCCCC[C@@H]1NC(=O)[C@H](CCCNC(=N)N)NC(=O)[C@H](CCCNC(=N)N)NC(=O)[C@H](CCCNC(=N)N)NC(=O)[C@H](CCCNC(=N)N)NC(=O)[C@H](CCCNC(=N)N)NC(=O)[C@H](CCCNC(=N)N)NC1=O,"enzyme activity, inhibitor, radiometric",pIC50,5.99
CCCCCCCC(=O)OCCN1CCN(c2cc(Nc3ncc(C(=O)Nc4c(C)cccc4Cl)s3)nc(C)n2)CC1,,pIC50,7.29
